Measured values gathered from unrelated publications.
Numbered parts are unrelated; each lists some results of a single study.
Chain of UniProt Q5BJF2 (whole entry, looked up): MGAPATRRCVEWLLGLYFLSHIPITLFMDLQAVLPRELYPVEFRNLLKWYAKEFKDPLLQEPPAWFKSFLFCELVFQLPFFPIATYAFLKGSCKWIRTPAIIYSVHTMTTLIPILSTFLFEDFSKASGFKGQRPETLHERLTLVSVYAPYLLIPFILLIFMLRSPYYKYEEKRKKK
Chain of UniProt P41595 (whole entry, looked up): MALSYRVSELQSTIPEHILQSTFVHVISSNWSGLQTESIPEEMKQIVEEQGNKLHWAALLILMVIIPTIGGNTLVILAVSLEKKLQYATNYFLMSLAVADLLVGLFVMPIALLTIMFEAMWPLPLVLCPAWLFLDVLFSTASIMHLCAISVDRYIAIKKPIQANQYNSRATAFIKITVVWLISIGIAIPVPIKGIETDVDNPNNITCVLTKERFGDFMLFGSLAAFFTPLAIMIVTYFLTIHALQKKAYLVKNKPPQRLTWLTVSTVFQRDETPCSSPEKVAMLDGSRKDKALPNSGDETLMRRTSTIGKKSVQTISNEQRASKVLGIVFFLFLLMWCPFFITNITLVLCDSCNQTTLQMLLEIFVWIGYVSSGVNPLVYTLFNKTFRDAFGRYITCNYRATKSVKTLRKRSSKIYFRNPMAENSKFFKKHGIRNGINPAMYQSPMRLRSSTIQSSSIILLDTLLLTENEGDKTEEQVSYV
Chain of UniProt Q99720 (whole entry, looked up): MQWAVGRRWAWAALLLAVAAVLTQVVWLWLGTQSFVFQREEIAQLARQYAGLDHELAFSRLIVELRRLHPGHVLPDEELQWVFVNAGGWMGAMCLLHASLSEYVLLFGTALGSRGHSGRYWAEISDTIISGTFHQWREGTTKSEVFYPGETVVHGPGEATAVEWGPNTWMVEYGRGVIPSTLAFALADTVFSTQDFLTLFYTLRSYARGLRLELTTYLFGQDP
Chain of UniProt P11229 (whole entry, looked up): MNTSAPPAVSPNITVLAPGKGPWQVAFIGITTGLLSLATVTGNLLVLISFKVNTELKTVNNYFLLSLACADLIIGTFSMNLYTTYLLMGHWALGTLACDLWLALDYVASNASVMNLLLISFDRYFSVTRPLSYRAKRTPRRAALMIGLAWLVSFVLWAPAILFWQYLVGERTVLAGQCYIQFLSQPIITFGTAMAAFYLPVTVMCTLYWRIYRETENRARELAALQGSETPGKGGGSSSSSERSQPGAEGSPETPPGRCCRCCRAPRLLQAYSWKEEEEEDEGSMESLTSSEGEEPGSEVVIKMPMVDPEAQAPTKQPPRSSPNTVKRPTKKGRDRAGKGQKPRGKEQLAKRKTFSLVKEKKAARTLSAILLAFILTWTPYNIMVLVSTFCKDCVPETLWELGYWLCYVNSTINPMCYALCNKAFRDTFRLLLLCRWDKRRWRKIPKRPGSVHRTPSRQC
Chain of UniProt P08588 (whole entry, looked up): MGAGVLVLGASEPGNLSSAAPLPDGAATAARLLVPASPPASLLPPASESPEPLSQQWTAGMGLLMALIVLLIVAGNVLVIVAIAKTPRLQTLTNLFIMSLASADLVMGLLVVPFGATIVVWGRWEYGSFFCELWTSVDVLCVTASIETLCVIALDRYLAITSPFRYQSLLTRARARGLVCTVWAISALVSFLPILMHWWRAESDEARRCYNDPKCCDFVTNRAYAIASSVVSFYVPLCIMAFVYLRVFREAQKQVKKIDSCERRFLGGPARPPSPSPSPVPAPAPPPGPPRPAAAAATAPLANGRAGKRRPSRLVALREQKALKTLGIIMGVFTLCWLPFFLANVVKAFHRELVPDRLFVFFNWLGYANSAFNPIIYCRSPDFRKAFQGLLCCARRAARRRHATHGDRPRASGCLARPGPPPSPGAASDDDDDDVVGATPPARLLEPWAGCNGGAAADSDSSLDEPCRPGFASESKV
Chain of UniProt P14416 (whole entry, looked up): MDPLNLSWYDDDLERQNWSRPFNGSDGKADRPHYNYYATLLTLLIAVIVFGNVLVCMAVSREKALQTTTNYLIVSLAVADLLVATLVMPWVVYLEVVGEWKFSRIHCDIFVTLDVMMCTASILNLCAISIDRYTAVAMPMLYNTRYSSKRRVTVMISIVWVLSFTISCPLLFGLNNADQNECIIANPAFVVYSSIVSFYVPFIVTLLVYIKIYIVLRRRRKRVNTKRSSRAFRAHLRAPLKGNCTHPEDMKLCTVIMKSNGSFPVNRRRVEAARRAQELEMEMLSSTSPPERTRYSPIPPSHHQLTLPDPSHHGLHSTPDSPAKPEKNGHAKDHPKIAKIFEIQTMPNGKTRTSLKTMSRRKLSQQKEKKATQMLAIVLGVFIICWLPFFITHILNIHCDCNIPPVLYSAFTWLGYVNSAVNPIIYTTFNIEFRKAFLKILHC
Chain of UniProt P08913 (whole entry, looked up): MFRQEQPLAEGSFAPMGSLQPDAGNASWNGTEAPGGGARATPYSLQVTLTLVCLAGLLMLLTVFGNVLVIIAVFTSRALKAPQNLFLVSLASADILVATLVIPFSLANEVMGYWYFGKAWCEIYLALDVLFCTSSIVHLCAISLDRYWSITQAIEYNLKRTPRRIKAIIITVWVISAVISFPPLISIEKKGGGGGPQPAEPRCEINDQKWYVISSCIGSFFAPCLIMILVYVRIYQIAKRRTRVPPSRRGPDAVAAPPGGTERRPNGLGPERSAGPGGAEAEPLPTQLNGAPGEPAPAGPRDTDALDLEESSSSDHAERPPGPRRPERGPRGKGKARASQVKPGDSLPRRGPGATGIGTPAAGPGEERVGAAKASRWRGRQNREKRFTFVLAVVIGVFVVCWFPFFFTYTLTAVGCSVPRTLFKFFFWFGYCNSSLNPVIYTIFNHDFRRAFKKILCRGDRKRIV
Chain of UniProt P07550 (whole entry, looked up): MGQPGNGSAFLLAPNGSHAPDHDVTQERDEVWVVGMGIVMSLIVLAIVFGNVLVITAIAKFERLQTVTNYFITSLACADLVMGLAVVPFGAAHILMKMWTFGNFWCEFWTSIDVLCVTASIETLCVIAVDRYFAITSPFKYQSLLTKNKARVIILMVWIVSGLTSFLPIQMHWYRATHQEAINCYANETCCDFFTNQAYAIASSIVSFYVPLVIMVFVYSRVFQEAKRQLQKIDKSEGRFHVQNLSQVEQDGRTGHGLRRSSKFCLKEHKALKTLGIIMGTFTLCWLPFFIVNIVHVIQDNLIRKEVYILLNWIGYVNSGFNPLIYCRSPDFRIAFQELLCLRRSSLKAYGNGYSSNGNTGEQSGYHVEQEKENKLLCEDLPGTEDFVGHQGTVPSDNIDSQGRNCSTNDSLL
Chain of UniProt Q9Y5N1 (whole entry, looked up): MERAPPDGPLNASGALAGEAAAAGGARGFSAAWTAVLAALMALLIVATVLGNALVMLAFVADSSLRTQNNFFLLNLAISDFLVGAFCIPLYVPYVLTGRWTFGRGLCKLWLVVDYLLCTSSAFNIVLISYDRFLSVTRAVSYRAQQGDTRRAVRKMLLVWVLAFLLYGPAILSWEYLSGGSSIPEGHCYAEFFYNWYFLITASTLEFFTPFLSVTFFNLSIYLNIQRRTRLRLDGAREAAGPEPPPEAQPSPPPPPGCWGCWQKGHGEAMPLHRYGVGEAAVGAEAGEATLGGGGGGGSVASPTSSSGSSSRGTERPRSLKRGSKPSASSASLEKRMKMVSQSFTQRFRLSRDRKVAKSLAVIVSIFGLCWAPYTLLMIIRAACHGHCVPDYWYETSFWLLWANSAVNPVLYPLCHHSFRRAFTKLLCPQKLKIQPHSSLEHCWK
Chain of UniProt P21917 (whole entry, looked up): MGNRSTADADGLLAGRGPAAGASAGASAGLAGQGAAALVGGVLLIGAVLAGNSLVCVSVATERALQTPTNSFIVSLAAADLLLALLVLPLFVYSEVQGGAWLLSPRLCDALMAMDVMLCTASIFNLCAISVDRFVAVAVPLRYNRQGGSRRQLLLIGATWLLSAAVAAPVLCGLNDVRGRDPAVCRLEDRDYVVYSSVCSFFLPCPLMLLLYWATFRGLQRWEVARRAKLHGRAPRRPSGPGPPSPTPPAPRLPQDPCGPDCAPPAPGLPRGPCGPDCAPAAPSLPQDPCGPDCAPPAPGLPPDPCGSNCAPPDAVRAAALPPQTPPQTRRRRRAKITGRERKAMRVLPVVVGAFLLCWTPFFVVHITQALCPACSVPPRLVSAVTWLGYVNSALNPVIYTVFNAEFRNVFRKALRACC
Chain of UniProt P41143 (whole entry, looked up): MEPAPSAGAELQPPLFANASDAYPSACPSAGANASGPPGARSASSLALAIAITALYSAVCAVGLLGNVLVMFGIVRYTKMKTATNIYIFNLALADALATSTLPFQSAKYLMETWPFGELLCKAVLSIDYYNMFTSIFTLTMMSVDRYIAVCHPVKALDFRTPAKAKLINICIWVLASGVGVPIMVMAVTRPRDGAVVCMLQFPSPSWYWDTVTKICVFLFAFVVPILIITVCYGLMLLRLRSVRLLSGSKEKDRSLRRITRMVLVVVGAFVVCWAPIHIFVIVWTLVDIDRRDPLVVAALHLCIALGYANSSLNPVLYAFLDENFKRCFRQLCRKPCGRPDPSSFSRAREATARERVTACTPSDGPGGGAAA
Chain of UniProt P28223 (whole entry, looked up): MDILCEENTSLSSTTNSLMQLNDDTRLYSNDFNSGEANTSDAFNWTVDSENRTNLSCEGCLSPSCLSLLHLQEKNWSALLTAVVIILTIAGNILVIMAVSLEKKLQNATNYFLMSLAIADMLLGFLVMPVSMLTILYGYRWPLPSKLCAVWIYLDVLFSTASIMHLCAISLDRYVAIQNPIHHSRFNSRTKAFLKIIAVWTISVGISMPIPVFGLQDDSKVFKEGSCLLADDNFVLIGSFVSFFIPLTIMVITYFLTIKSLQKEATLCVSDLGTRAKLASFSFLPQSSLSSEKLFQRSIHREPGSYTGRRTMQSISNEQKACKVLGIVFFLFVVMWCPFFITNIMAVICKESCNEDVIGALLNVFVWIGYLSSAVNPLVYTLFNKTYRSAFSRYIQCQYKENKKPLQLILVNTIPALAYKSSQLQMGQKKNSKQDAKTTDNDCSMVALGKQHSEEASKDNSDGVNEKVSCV

Study 1 — effect on: binding; technique: radioligand binding; tested at: 10 µM
SMILES: Cn1cncc1[C@](O)(COc1ccc(C#N)cc1-c1ccc(OC(F)(F)F)cc1)c1ccc(C#N)cc1
target	inhibition [%]
HTR2C (Homo sapiens, UniProt P28335)	0.26
CHRM1 (Homo sapiens, UniProt P11229)	-4.07
ADRA2A (Homo sapiens, UniProt P08913)	32.2
HTR2B (Homo sapiens, UniProt P41595)	-5.75
TMEM97 (Homo sapiens, UniProt Q5BJF2)	40.3
DRD2 (Homo sapiens, UniProt P14416)	-16.5
SIGMAR1 (Homo sapiens, UniProt Q99720)	42.5
ADRA1A (Homo sapiens, UniProt P35348)	-7.74
ADRB2 (Homo sapiens, UniProt P07550)	0.0774
ADRB1 (Homo sapiens, UniProt P08588)	4.25
CHRM5 (Homo sapiens, UniProt P08912)	-4.82
DRD3 (Homo sapiens, UniProt P35462)	-9.46
DRD4 (Homo sapiens, UniProt P21917)	-1.32
HTR6 (Homo sapiens, UniProt P50406)	6.74
OPRD1 (Homo sapiens, UniProt P41143)	-0.182
HTR2A (Homo sapiens, UniProt P28223)	-0.429
HRH3 (Homo sapiens, UniProt Q9Y5N1)	5.92

Study 2 — cell line: HEK-293T/ACE2; tested at: concentration not given; time: 16 (unit not given); baseline: vehicle
SMILES	viability
CC(C)(Sc1cc(C(C)(C)C)c(O)c(C(C)(C)C)c1)Sc1cc(C(C)(C)C)c(O)c(C(C)(C)C)c1	102%
COc1cccc2c1C(=O)c1c(O)c3c(c(O)c1C2=O)C[C@@](O)(C(=O)CO)C[C@@H]3O[C@H]1C[C@H](N)[C@@H](O)[C@H](C)O1	79.3%
CC1=C(/C=C/C(C)=C/C=C/C(C)=C\C(=O)O)C(C)(C)CCC1	99.8%
Cn1c(=O)cc(N2CCC[C@@H](N)C2)n(Cc2ccccc2C#N)c1=O	100%
OCCOCCN1CCN(C(c2ccccc2)c2ccc(Cl)cc2)CC1 (stereo not drawn)	84%
Nc1nc2c(ncn2CCC(CO)CO)c(=O)[nH]1	97.3%
Cc1onc(-c2ccccc2)c1-c1ccc(S(N)(=O)=O)cc1	101%
CC(C)/N=c1\cc2n(-c3ccc(Cl)cc3)c3ccccc3nc-2cc1Nc1ccc(Cl)cc1	103%
[H]/N=C(/N)N[C@H]1[C@H](O)[C@@H](O)[C@H](O[C@@H]2O[C@@H](C)[C@](O)(C=O)[C@H]2O[C@@H]2O[C@@H](CO)[C@H](O)[C@@H](O)[C@@H]2NC)[C@@H](N/C(N)=N\[H])[C@@H]1O	98.9%
C#C[C@]1(O)CC[C@H]2[C@@H]3CCc4cc(OC)ccc4[C@H]3CC[C@@]21C	103%
CC(=O)CCCCn1c(=O)c2c(ncn2C)n(C)c1=O	79.8%

Study 3 — cell line: HEK-293T-ACE2-TMPRSS2; technique: cell count; tested at: 10 µM
SMILES	viability [%]
CCSc1nc(CC(=O)N2CCC[C@H]2CO)cs1	67
CCN1CCN(C(=O)c2c(C)oc3c2C(=O)c2ccccc2C3=O)CC1	77
CCCCN1COc2c(cc(Cl)c3cccnc23)C1	137
c1csc(-c2csc3nc(CN4CCOCC4)nc(Sc4nnc(C5CC5)o4)c23)c1	67
COC(=O)c1cc2ccc3c(c2oc1=O)CN(Cc1ccco1)CO3	76
Cc1noc(C)c1CN1C[C@@H](CO)[C@H](NC(=O)c2cccnc2)C1	97
Cc1ccc2oc(C(=O)NCC3COc4ccccc4O3)c(C)c2c1 (stereo not drawn)	108
CC(CNC(=O)C1CCN(C(=O)C2Sc3ccccc3NC2=O)CC1)c1ccccc1 (stereo not drawn)	74
O=C(/C=C/S/C=C/C(=O)c1ccc(F)cc1)c1ccc(F)cc1	84
COc1ccc(C(CC(=O)NCc2ncc[nH]2)c2ccccc2)cc1 (stereo not drawn)	109
CC1(C)CC(=O)c2c(C(F)(F)F)nn(-c3ccc(C(N)=O)c(N[C@H]4CC[C@H](O)CC4)c3)c2C1	79
Cc1cccc(-c2nccc(Nc3ccc(C(=O)N4CCN(Cc5ccccc5)CC4)cc3)n2)c1	67
O=C(c1ccc(-n2c(-c3ccccc3)nc3cccnc32)cc1)N1CCN(c2ccccn2)CC1	78
O=C(N[C@@H]1CN(Cc2c[nH]c3ccccc23)C[C@H]1CO)c1ccccc1	109
O=C(NCCc1csc(-c2ccccc2)n1)[C@H]1CCCN1C(=O)c1ccco1	70
Cn1cc(CN2CCN(Cc3nccn3C)CC2)c(-c2ccc3c(c2)OCCO3)n1	103
CCOC(=O)c1ccc(N2N=C(C(=O)c3ccccc3)S(=O)(=O)c3ccc(F)cc32)cc1	71
O=C(NCC1C[C@H]2C=C[C@H]1C21CC1)c1coc(CN2CCN(Cc3ccccc3)CC2)n1 (stereo partly drawn)	108
O=C(NCCc1ccccc1)c1cccc(Nc2ccc(-c3ccccc3)nn2)c1	77
CC1CCN(CCCNC(=O)c2cc3c(s2)-c2ccc(Cl)cc2SC3)CC1	82
OC[C@@H]1CN(C2CCCC2)C[C@H]1c1nc(-c2ccncc2)no1	106
Cc1nn(CCC(C)C)c2c1C(CCc1ccccc1)CC(=O)N2 (stereo not drawn)	65
O=C1c2ccccc2C(=O)N1Cn1ncc(Cl)c(Cl)c1=O	83
COc1ccc(C(=O)N(C)CC2CCN(CCc3ccccc3OC)CC2)cc1F	113
CCCN(CCC)c1nc(N)ncc1[N+](=O)[O-]	252

Further values, each from its own experiment
SMILES	target	effect on	mode	tested at	baseline	endpoint	value
COC(=O)[C@]1(O)C[C@@H]2O[C@@]1(C)n1c3ccccc3c3c4c(c5c6ccccc6n2c5c31)C(=O)NC4	Myosin light chain kinase, smooth muscle (MYLK, Homo sapiens, UniProt Q15746)	enzyme activity	inhibitor	0.5 µM	control	remaining activity	6.35%

Excerpt of the above (study 1):
target	inhibition [%]
DRD2 (Homo sapiens, UniProt P14416)	-16.5
TMEM97 (Homo sapiens, UniProt Q5BJF2)	40.3
HRH3 (Homo sapiens, UniProt Q9Y5N1)	5.92
HTR2A (Homo sapiens, UniProt P28223)	-0.429
ADRA2A (Homo sapiens, UniProt P08913)	32.2
ADRA1A (Homo sapiens, UniProt P35348)	-7.74
OPRD1 (Homo sapiens, UniProt P41143)	-0.182
